Measurements collected from several papers.
Parts stem from different laboratories: compare values within a part only.

Set 1
Target: Prothrombin, mature alpha-thrombin (F2, Homo sapiens, UniProt P00734)
Method: aptamer microarray, sandwich
Form: DNA with 2'F-ANA
Sample: in vitro
Concentration: 200 nM
Notes: whole 15-mer aptamer, many near background
Together with: Cy3 exosite-II aptamer, 400 nM
Reading: higher = stronger binding
Sequence: GGTTGGTGTGGTTGG
Under “mean fluorescence intensity”, `2'F-ANA at 1 2 3 5 7 8 9 14 15` is recorded as 49 a.u.
`2'F-ANA at 2 4 10 11 13 14 15`: “mean fluorescence intensity” 85.7 a.u.
`2'F-ANA at 1 2 3 10 11 13` — result for “mean fluorescence intensity”: 57.8 a.u.
`2'F-ANA at 6 8 9 10 11 12 15`: “mean fluorescence intensity” 143 a.u.
For `2'F-ANA at 2 11 12 13 14`, “mean fluorescence intensity” read 242 a.u.
`2'F-ANA at 2 5 6 8 12 14 15` — result for “mean fluorescence intensity”: 50.2 a.u.
`2'F-ANA at 1 2 4 5 8 10 11 14 15`: “mean fluorescence intensity” 54.5 a.u.
For `2'F-ANA at 1 7 8 11 12 15`, “mean fluorescence intensity” read 356 a.u.
`2'F-ANA at 3 6 7 8 9 11 12 13 15`: “mean fluorescence intensity” 1020 a.u.
For `2'F-ANA at 1 4 6 11 15`, “mean fluorescence intensity” read 89.1 a.u.
`2'F-ANA at 2 3 4 5 8 9 10 11 14` — result for “mean fluorescence intensity”: 53.7 a.u.
`2'F-ANA at 1 2 4 6 7 9 10 12 13 14 15`: “mean fluorescence intensity” 45.6 a.u.
`2'F-ANA at 1 2 4 6 8 9 10 12 13 15`: “mean fluorescence intensity” 52.1 a.u.
`2'F-ANA at 4 5 7 9 11 15`: “mean fluorescence intensity” 65.9 a.u.
Under “mean fluorescence intensity”, `2'F-ANA at 1 2 3 5 6 7 8 11 12 13` is recorded as 84.6 a.u.
`2'F-ANA at 1 5 10 11 12`: “mean fluorescence intensity” 47.6 a.u.
Under “mean fluorescence intensity”, `2'F-ANA at 1 5 10 15` is recorded as 44.9 a.u.
For `2'F-ANA at 1 2 3 6 7 10 11 12 15`, “mean fluorescence intensity” read 119 a.u.
`2'F-ANA at 1 2 3 5 6 7 8 9 11 12 13 14 15` — result for “mean fluorescence intensity”: 103 a.u.
Under “mean fluorescence intensity”, `2'F-ANA at 1 2 3 6 8 15` is recorded as 253 a.u.
For `2'F-ANA at 2 3 4 6 7 9 10 11 13 15`, “mean fluorescence intensity” read 208 a.u.
For `2'F-ANA at 2 5 7 9`, “mean fluorescence intensity” read 77.4 a.u.
`2'F-ANA at 2 7 8 11 14`: “mean fluorescence intensity” 162 a.u.
For `2'F-ANA at 1 4 5 6 7 9 12 13 14`, “mean fluorescence intensity” read 43.9 a.u.
Under “mean fluorescence intensity”, `2'F-ANA at 2 3 6 7 8 13 14 15` is recorded as 372 a.u.

Set 2
Target: Histone acetyltransferase KAT6A, both winged helices, GST fusion (KAT6A, Homo sapiens, UniProt Q92794, residues 1-181)
Method: protein binding microarray
Form: double-stranded DNA, one strand shown
Sample: in vitro
Concentration: not given
Notes: 8-mer, flanks averaged, mean of 2 arrays, mostly near background
Reference: not given
Reading: higher = stronger binding
Target sequence (chain): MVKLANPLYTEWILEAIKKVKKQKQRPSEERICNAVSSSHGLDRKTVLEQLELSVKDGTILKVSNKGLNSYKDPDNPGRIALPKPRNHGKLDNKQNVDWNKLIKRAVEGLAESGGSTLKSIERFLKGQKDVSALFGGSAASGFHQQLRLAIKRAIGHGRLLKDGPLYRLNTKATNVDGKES
`ATACGGGG` gave an E-score of 0.174.
`ATTGATCC` gave an E-score of 0.0453.
For `CAACCCCG`, the E-score was 0.112.
With `AGCACCTG` the E-score was -0.299.
With `GAATGTCC` the E-score was 0.0245.
`AGCTGAAT` gave an E-score of -0.126.
With `CTAAGTGC` the E-score was -0.144.
`CACACGGG` gave an E-score of 0.157.
`CTCGATAC` has an E-score of -0.011.
`CCTTCCTC` gave an E-score of -0.148.
With `GCGGACAA` the E-score was 0.138.
With `AGGTCAGG` the E-score was -0.238.
With `GAGGGTAA` the E-score was -0.126.
`GATACAGA` has an E-score of -0.155.
For `CCAACGAG`, the E-score was -0.204.
`CCCAAATA` has an E-score of -0.258.
The E-score of `CCCTTATA` is reported as -0.0629.
`AAACCTCC` has an E-score of -0.247.

Set 3
Target: RNA binding protein fox-1 homolog 2, RRM domain, GST-SBP tag (RBFOX2, Homo sapiens, UniProt O43251-10, residues 100-194)
Method: RNA Bind-n-Seq
Form: RNA
Sample: in vitro
Concentration: 365 nM
Notes: natural RNA segment, single round, ends assumed
Reference: no-protein control
Reading: higher = stronger binding
Target sequence (chain): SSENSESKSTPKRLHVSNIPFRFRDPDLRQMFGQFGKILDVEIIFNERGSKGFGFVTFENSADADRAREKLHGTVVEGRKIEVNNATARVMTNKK
Under “RBNS enrichment (R)”, `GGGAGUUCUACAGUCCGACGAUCAUUCCACUAGUGAAAGAACCAUUUUUUAAACUUCCCUUGCCUUUUUUAUUUAUUUAAUUUUCUUGGUUUGGAGAUGUCAGUCCCAAACACCAGAGUCUGUACUUUUCUAUUGGAAUUCUCGGGUGCCAA` is recorded as 0.857.
`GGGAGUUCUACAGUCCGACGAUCUUGUAAAGAUAUUGUAUCUCCUUUAAUAUACUCCUUAAAAAUGUAUGUUGGUUUAGCGUUGUUUUGUGGAUAAGAAAAAUGCUUGACCCUGAAAUAUUUUCUACUUUAAAUGGAAUUCUCGGGUGCCAA` — result for “RBNS enrichment (R)”: 0.871.
`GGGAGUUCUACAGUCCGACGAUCCAGUAGCUCAGACCUGUCUUUUCUUGCACACCAGCUGUGCUCUUGAGAAAAUGUAAAGGCUGCCAUUAUGGAUAUUAGGUAUCCCAACAUAACCAUCUGGAGUGUGUCCAUGGAAUUCUCGGGUGCCAA`: “RBNS enrichment (R)” 0.248.
`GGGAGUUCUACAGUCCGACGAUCCCUCUCCAAGCAGUCAAGCCCUCUUGCAAAUUCAGCCACUGCUUUGAGCCCAAAACGGGAAUAUUAGUUUUAUGUCGGAGGUGUGUUCCAAGUUUGUCAAUGAGGCUAUAUGGAAUUCUCGGGUGCCAA`: “RBNS enrichment (R)” 1.19.
`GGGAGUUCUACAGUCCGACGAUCGUGGCUUUGAGAAAAGGUACUUUCAAAAGAGGGCUUUCCAGAGCACAGCUCACAGCCAGCUGUUAGGACCCCACCCUUCUCCCUUUAUUGUGGAGGUGACUCACAGCAGAUGGAAUUCUCGGGUGCCAA`: “RBNS enrichment (R)” 0.318.
`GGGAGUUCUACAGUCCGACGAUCACCAUUUAUUCUUUCAUUUAUAGUUGGGAAAGUUUUUGACGGUACUAACAAAGUGGUCGCAGGAGAUUUUGGAACGGCUGGUUUAAAUGGCUUCAGGAGACUUCAGUUUUUGGAAUUCUCGGGUGCCAA` — result for “RBNS enrichment (R)”: 0.51.
`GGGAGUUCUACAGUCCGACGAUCUUAUGGGUUGGCUUGGUUUGGUUUUUCUUAGCACCACCUGGGAUCACAGAGGCUCCUAAGAUACAUGAGACCUUUGCAGUGUUUUCUCUCCACCUUCUGAGACAGAGGGAUGGAAUUCUCGGGUGCCAA` — result for “RBNS enrichment (R)”: 0.51.
For `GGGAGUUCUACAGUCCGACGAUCCAGCGCCUUCCAGCCCUGAGCCCGCCCAGAGGAGCCCAGCGGCCCAAGAGCCCGUGCCACCCCCAGCCCUGGCCCCUCCAAUCCUCCCCGCUCUGCCGCCGCCCGCUGGGUGGAAUUCUCGGGUGCCAA`, “RBNS enrichment (R)” read 0.591.
Under “RBNS enrichment (R)”, `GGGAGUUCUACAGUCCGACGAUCUUCUAAUAUAUAUAAUAUUAUGGUAAUAGCAGAAGUUUUGUUAUCUUAAUAGCGGGAGGGGGGUAUAUUUGUGCAGUUGCACAUUUGAGUAACUAUUUUCUUUCUGUUUUUGGAAUUCUCGGGUGCCAA` is recorded as 0.536.

Set 4
Target: Phosphate system positive regulatory protein PHO4, full length, GST-tagged (PHO4, Saccharomyces cerevisiae, UniProt P07270, residues 1-312)
Method: competition protein-binding microarray
Form: double-stranded DNA, one strand shown
Sample: in vitro
Concentration: 2 µM
Notes: whole 60-bp probe, lowest competitor level
Together with: Cbf1 competitor, 0.05 µM
Reading: higher = stronger binding
Residues (chain): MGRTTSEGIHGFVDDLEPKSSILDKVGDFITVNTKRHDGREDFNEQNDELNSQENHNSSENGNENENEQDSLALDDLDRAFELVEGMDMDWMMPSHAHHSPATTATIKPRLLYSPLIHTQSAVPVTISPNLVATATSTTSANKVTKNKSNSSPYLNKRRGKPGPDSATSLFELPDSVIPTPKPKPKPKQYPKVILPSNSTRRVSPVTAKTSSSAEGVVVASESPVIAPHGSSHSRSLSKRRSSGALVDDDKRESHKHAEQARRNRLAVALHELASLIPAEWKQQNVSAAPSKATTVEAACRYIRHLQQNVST
`ACACCATCGCATACCCACGTGGCCGCTTCGTTTGCCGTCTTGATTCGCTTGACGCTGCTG` gave a fluorescence intensity of 18600 a.u.
`TGAATTTTCGCGAGTCACGTCGTAACTCATATGCTTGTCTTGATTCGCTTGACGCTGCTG` gave a fluorescence intensity of 4330 a.u.
`CGTCCTAGTGATTTTCACGTGTTTTCCATGAGGAAGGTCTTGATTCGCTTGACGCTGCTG` has a fluorescence intensity of 13900 a.u.
`ACAACCATCTATGATGACGTGTTGACATTATCAAACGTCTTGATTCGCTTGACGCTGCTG` gave a fluorescence intensity of 6280 a.u.
The fluorescence intensity of `TGCGCAACAACTTTTCACGTGTCCTTATGTCTAGAAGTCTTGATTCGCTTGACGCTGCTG` is reported as 14800 a.u.
The fluorescence intensity of `CGTCCTAGTGATTTTCACGTGTACTCCATGAGGAAGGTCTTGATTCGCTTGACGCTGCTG` is reported as 13200 a.u.
`ATTATCTAGGTGCTACACGTGTTGGGACAGACTTATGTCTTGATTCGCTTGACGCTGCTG` gave a fluorescence intensity of 20700 a.u.
The fluorescence intensity of `CATACCCAACCTTGCAGCGTGGGTGAAGATATTTGTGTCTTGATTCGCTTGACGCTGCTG` is reported as 8460 a.u.
With `CTTCTGTAAATTTGTATTGTGGGTGGACGCGCCCCGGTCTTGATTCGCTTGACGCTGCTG` the fluorescence intensity was 4700 a.u.
The fluorescence intensity of `TCGCACCTTTGTGAGCACATGATTCTTTCTGCCGGTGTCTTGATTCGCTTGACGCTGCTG` is reported as 9430 a.u.
`AAACGGGAACGAGCGTTCGTGCGGAGTGATGGTTAGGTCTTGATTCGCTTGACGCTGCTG` gave a fluorescence intensity of 7120 a.u.
`CATTGAAAAGCAAGTGACGTGACTCGAACTTGAAAGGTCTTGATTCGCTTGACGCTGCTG` has a fluorescence intensity of 3980 a.u.
`TGGCCCTTTCACCAACACGTGCCAGTTTCCAGAAGGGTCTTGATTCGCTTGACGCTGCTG` gave a fluorescence intensity of 16900 a.u.
`CATACCCAACCTTGTCACGTGTTTTAAGATATTTGTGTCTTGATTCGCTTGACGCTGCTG` gave a fluorescence intensity of 17900 a.u.
`TGCGCAACAACTTGTCACTTCACTTTATGTCTAGAAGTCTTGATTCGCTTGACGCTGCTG` has a fluorescence intensity of 3310 a.u.
For `CATACCCAACCTTTTCACGTGATCTAAGATATTTGTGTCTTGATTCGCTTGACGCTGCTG`, the fluorescence intensity was 13500 a.u.
`CTTTCCCGATCTTGGGTAGTGGGTGTAGCACATTTGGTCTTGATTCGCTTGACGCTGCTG` has a fluorescence intensity of 5070 a.u.
The fluorescence intensity of `GGGGTTAAGGTCTGGCACGATGGTAAGACGATGAGGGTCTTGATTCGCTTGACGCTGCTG` is reported as 12100 a.u.
`AGGGTGGTATGGATACACGGGAAGCTGGGTGCTGCAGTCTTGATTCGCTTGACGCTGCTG` has a fluorescence intensity of 5370 a.u.
`CGGGGTTAAGTTTGTCACAACACTTGCTTGCAGCAGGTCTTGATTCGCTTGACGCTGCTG` has a fluorescence intensity of 3720 a.u.
The fluorescence intensity of `AAATTACTAAGTTGTCGGGTGGGTGACGCCGTATGAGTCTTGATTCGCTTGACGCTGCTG` is reported as 4170 a.u.
`CTTGACCACTTATTTCACGGGCTCCGTAGCGGACAAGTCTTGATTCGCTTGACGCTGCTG` has a fluorescence intensity of 4190 a.u.
The fluorescence intensity of `TTGAACGGTGGTACCCACGCTGGTGGTGCTTTGGCTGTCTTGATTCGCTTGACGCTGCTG` is reported as 7820 a.u.
The fluorescence intensity of `AAATTACTAAGTTGTAGCGTGGGTGACGCCGTATGAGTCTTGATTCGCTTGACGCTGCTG` is reported as 7140 a.u.
With `CGTCCTAGTGATTGCTTGGTGGGTGCCATGAGGAAGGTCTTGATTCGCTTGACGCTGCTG` the fluorescence intensity was 6230 a.u.
